Experimental data from different studies.
Protocols differ between the studies behind these lines.

| Compound | tested on | test | test system | conditions | scale | quantity | result |
| --- | --- | --- | --- | --- | --- | --- | --- |
| CC1=C(Cn2cc(CN)nn2)C(=O)c2ccccc2C1=O | Schistosoma mansoni |  | adult worms | 10 µM, 48 h |  | killing | 44.4% |
| Cc1ccccc1N1C(=O)c2cc(S(N)(=O)=O)c(Cl)cc2NC1C (stereo not drawn) | Nedd8-cullin1 interaction | neddylation, AlphaScreen |  | 100 µM |  | inhibition | 16.5% |
| CC1=C(Cc2cn(CCN3CCC(F)(F)CC3)nn2)C(=O)c2ccccc2C1=O | Schistosoma mansoni |  | adult worms | 10 µM, 72 h |  | killing | 44.4% |
| COc1ccccc1OCCNCC(O)COc1cccc2[nH]c3ccccc3c12 (stereo not drawn) | Nedd8-cullin1 interaction | neddylation, AlphaScreen |  | 100 µM |  | inhibition | 89.8% |
| CC1=C(Cc2cn(CCN3CCC(=O)CC3)nn2)C(=O)c2ccccc2C1=O | Schistosoma mansoni |  | adult worms | 10 µM, 24 h |  | killing | 45.4% |
| COc1cnc2cccc(N3CCc4c(cc(Cn5ccnc5C)cc4-c4cn(C)nc4C(F)(F)F)C3=O)c2c1 | NCI-H2126 | cell growth, inhibitor |  | 120 h |  | EC50 | 9.79 µM |
| CCCc1nc(C(C)(C)O)c(C(=O)OCc2oc(=O)oc2C)n1Cc1ccc(-c2ccccc2-c2nnn[nH]2)cc1 | Nedd8-cullin1 interaction | neddylation, AlphaScreen |  | 100 µM |  | inhibition | 79.6% |
| CCn1cc(-c2cc(Cn3ccoc3=N)cc3c2CCN([C@@H](C)c2cc(OC)ccn2)C3=O)c(C(F)(F)F)n1 | BICR56 | cell growth |  | 120 h |  | EC50 | > 30 µM |
| NCCCC[C@H](N[C@@H](CCc1ccccc1)C(=O)O)C(=O)N1CCC[C@H]1C(=O)O | Nedd8-cullin1 interaction | neddylation, AlphaScreen |  | 100 µM |  | inhibition | 9.9% |
| CC1=C(Cn2cc(CBr)nn2)C(=O)c2ccccc2C1=O | Schistosoma mansoni |  | adult worms | 10 µM, 48 h |  | killing | 44.9% |
| CC(C)NCC(O)c1ccc(O)c(O)c1 (stereo not drawn) |  |  | ventricular cardiomyocytes, C57BL/6 mouse | dose not given, 0.596 s |  | sarcomere length | 1.66 µm |
| Cn1cc(-c2ccc(-c3cncc(Cl)c3N3CCC4(CCNC4=O)CC3)cc2)cn1 | COLO 205 | gene expression, microarray, measured: SPEF1 mRNA |  | concentration not given, 6 h | relative to: untreated cells | log2 fold change | 2.18 |
| CC1=C(Cn2cc(CN3CCOCC3)nn2)C(=O)c2ccccc2C1=O | Schistosoma mansoni |  | adult worms | 25 µM, 24 h |  | killing | 45.5% |
| CCOC(=O)C1=C(COCCN)NC(C)=C(C(=O)OC)C1c1ccccc1Cl (stereo not drawn) | Nedd8-cullin1 interaction | neddylation, AlphaScreen |  | 100 µM |  | inhibition | -133% |
| CCn1cc(-c2cc(Cn3ccnc3)cc3c2CCN([C@H](c2cc(OC)ccn2)C2CC2)C3=O)c(C(F)(F)F)n1 | HEC-1B | cell growth, inhibitor |  | 120 h |  | EC50 | 3.68 µM |
